Measured values collected from several papers.
Each line is one published result; not all experiments were run side by side. “And” joins repeats or separate records; there may be more than shown. ± gives the spread as reported.
TDP1: Tyrosyl-DNA phosphodiesterase 1 (TDP1, Homo sapiens, UniProt Q9NUW8)
Chain of UniProt Q9NUW8 (whole entry, looked up): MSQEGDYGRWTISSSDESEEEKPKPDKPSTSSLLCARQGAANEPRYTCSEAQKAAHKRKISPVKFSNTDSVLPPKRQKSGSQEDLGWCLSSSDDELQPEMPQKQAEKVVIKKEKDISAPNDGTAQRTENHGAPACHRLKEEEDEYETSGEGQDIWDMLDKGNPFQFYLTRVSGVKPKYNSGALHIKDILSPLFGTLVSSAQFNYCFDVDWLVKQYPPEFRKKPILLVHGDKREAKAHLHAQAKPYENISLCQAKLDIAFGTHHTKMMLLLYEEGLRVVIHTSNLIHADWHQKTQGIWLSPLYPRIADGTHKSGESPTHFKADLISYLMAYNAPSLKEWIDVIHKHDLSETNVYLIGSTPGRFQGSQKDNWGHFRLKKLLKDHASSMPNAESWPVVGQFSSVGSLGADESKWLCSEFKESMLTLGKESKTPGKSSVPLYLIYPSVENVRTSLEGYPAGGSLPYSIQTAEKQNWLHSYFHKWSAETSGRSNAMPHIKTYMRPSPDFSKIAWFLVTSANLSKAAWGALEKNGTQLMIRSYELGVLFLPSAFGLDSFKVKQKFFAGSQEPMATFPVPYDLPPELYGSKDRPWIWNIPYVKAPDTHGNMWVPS

Structure (SMILES) | tested on | test | test system | conditions | measurement | result
O=C(O)c1ccc(Nc2c(-c3ccccc3)nc3ccc(CON=Cc4csc(-c5cccc(Cl)c5)n4)cn23)cc1 (mixture of isomers) | TDP1 | enzyme activity, inhibitor | – | 100 µM, unpurified compound | inhibition | 6.5%
CCCC[C@H](NC(=O)COCCOCCNC(=O)CN1CCN(CC(=O)O)CCN(CC(=O)O)CC1)C(=O)N[C@H]1CC(=O)NCCCC[C@@H](C(N)=O)NC(=O)[C@H](Cc2c[nH]c3ccccc23)NC(=O)[C@H](CCCNC(=N)N)NC(=O)[C@@H](Cc2ccccc2)NC(=O)[C@H](Cc2c[nH]cn2)NC1=O [fluorine-18 labelled] | – | – | C57 mice, B16/F10 melanoma, spleen | intravenous, 1 h, together with: NDP-MSH 10 µg | tissue uptake | 0.09 ± 0.13 %ID/g
C=CCOc1ccc(C=NOCc2ccc(-c3nc4cc(-c5ccccc5)ccn4c3Nc3ccc(C(=O)O)cc3)cc2)cc1I | TDP1 | enzyme activity, inhibitor | – | 100 µM, unpurified compound | inhibition | 45.6%
CC(C)C[C@H](NC(=O)[C@@H](CCCCNC(=O)[C@@H](Cc1ccccc1)NC(=O)CCCCCCCNC(=O)CN1CCN(CC(=O)O)CCN(CC(=O)O)CCN(CC(=O)O)CC1)NC(=O)[C@H](Cc1ccc(O)cc1)NC(=O)[C@H](CO)NC(=O)[C@H](Cc1c[nH]c2ccccc12)NC(=O)[C@H](Cc1c[nH]cn1)NC(=O)[C@@H]1CCC(=O)N1)C(=O)N[C@@H](CCCNC(=N)N)C(=O)N1CCC[C@H]1C(=O)NCC(N)=O [indium-111 labelled] | – | biodistribution | male athymic nude mice, DU-145 prostate cancer xenograft, tumor | intravenous, 0.037 MBq, 2 h post-injection | tissue uptake | 0.53 ± 0.11 %ID/g
COc1ccc(Nc2nc(Nc3ccc(OCCOCC[18F])cc3)ncc2Br)cc1 | – | – | ICR mice, S180 tumour-bearing, bone | intravenous, 370 kBq, 30 min | tissue uptake | 3.84 ± 0.63 %ID/g
N#C[C@@H]1CCCN1C(=O)CNC(=O)c1ccnc2ccc(OCCCN3CCN(C(=O)CCc4ccc5c(c4)CN4CCN(Cc6cc(CCC(=O)O)ccc6O)CC(=O)[O][Al-]([18F])([O]C(=O)C4)[O]5)CC3)cc12 (stereo partly shown) | – | – | BALB/c nude mice, U-87 MG xenograft, kidney | 1 h, blocking, together with: DOTA-FAPI-04 40 nmol/mouse co-injected | tissue uptake | 0.74 ± 0.14 %ID/g
O=C(NCC1OC2CCC=CCCC2O1)c1ccc(COCCOCCOCC[18F])cc1 (stereo not shown) | – | – | healthy female BALB/c nude mice, blood | intravenous, 7.4 MBq per mouse, 60 min | tissue uptake | 3.8 ± 0.8 %ID/g
O=C([O-])CN1CCN(CC(=O)[O-])CCN(CC(=O)NC[C@H]2CC[C@H](C(=O)N[C@H](Cc3cnc4ccccc4c3)C(=O)NCCCC[C@H](NC(=O)N[C@@H](CCC(=O)O)C(=O)O)C(=O)O)CC2)CCN(CC(=O)[O-])CC1.[64Cu+2] | – | ex vivo gamma counting | 22Rv1 tumour-bearing mice, brain | intravenous, 0.74 MBq, 6 h post-injection | tissue uptake | 0.52 %ID/g
COc1ccc(Nc2nc(Nc3ccc(OCCOCCOCC[18F])cc3)ncc2Br)cc1 | – | – | ICR mice, S180 tumour-bearing, lung | intravenous, 370 kBq, 15 min | tissue uptake | 6.44 ± 0.73 %ID/g
Cc1cc(C)n(CCN(CCN)CCCCCCNC(=O)[C@@H](N)Cc2c[nH]cn2)n1.[99Tc+].[C-]#[O+].[C-]#[O+].[C-]#[O+] | – | – | BALB/c nude mice A549 xenograft, liver | intravenous, 15 min | tissue uptake | 21.1 ± 3.4 %ID/g
CCCC[C@H](NC(=O)CNC(=O)CNC(=O)[C@H](CCCCNC(=O)[C@H](CC(N)=O)NC(=O)C(C)c1ccc(CC(C)C)cc1)NC(=O)CN1CCN(CC(=O)O)CCN(CC(=O)O)CCN(CC(=O)O)CC1)C(=O)N[C@H]1CC(=O)NCCCC[C@@H](C(N)=O)NC(=O)[C@H](Cc2c[nH]c3ccccc23)NC(=O)[C@H](CCCNC(=N)N)NC(=O)[C@@H](Cc2ccccc2)NC(=O)[C@H](Cc2c[nH]cn2)NC1=O (stereo partly shown) [lutetium-177 labelled] | – | – | C57 mice, tumour-bearing, liver | 2 h | tissue uptake | 10.9 ± 0.83 %ID/g
O=C(NCC1OC2CCC=CCCC2O1)c1ccc([18F])nc1 (stereo not shown) | – | – | healthy female BALB/c nude mice, skin | intravenous, 7.4 MBq per mouse, 5 min | tissue uptake | 2.1 ± 0.6 %ID/g
COc1ccc2c(c1)C(C)(C)C(/C=C/C1=C(Oc3ccc(C(=O)NCCCCOc4cc(CN(Cc5ccccn5)Cc5ccccn5)cc(CN(Cc5ccccn5)Cc5ccccn5)c4)cc3)C(=C/C=C3/N(CCCCS(=O)(=O)[O-])c4ccc(OC)cc4C3(C)C)CCC1)=[N+]2CCCCS(=O)(=O)[O-].O=[N+]([O-])[O-].O=[N+]([O-])[O-].[99Tc+].[C-]#[O+].[C-]#[O+].[C-]#[O+].[Zn+2] | – | – | healthy BALB/c mice, brain | 12 h | tissue uptake | 0.01 %ID/g and 0.03 %ID/g and 0.02 %ID/g

For quick reference, copied from above:
Structure (SMILES) | tested on | test | test system | conditions | measurement | result
CCCC[C@H](NC(=O)COCCOCCNC(=O)CN1CCN(CC(=O)O)CCN(CC(=O)O)CC1)C(=O)N[C@H]1CC(=O)NCCCC[C@@H](C(N)=O)NC(=O)[C@H](Cc2c[nH]c3ccccc23)NC(=O)[C@H](CCCNC(=N)N)NC(=O)[C@@H](Cc2ccccc2)NC(=O)[C@H](Cc2c[nH]cn2)NC1=O [fluorine-18 labelled] | – | – | C57 mice, B16/F10 melanoma, spleen | intravenous, 1 h, together with: NDP-MSH 10 µg | tissue uptake | 0.09 ± 0.13 %ID/g
